Assay results of several laboratories.
Numbered parts are unrelated; each lists some results of a single study.
Chain of UniProt P27037 (whole entry, looked up): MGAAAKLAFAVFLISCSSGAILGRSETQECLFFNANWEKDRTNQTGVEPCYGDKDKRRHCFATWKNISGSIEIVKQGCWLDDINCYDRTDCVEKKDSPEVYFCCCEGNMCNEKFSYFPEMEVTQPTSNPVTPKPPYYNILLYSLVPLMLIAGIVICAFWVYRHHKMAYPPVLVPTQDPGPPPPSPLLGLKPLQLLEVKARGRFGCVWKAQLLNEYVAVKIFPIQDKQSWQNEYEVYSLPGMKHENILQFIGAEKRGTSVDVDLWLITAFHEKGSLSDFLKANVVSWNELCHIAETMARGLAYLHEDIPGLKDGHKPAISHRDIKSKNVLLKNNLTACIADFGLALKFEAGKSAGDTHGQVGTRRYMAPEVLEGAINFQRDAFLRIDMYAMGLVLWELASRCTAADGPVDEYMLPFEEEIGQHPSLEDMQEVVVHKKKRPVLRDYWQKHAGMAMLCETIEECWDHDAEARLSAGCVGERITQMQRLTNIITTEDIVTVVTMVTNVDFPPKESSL
Chain of UniProt P31391 (whole entry, looked up): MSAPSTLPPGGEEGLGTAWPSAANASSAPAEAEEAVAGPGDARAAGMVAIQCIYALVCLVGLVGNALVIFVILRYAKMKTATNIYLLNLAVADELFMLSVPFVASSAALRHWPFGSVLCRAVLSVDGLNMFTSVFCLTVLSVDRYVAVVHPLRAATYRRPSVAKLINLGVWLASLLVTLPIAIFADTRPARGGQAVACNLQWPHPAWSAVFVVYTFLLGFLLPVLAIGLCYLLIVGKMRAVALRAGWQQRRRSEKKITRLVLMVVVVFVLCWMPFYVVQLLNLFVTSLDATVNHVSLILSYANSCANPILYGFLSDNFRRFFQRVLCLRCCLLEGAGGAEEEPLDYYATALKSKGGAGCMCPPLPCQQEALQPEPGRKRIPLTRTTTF
Chain of UniProt P16591 (whole entry, looked up): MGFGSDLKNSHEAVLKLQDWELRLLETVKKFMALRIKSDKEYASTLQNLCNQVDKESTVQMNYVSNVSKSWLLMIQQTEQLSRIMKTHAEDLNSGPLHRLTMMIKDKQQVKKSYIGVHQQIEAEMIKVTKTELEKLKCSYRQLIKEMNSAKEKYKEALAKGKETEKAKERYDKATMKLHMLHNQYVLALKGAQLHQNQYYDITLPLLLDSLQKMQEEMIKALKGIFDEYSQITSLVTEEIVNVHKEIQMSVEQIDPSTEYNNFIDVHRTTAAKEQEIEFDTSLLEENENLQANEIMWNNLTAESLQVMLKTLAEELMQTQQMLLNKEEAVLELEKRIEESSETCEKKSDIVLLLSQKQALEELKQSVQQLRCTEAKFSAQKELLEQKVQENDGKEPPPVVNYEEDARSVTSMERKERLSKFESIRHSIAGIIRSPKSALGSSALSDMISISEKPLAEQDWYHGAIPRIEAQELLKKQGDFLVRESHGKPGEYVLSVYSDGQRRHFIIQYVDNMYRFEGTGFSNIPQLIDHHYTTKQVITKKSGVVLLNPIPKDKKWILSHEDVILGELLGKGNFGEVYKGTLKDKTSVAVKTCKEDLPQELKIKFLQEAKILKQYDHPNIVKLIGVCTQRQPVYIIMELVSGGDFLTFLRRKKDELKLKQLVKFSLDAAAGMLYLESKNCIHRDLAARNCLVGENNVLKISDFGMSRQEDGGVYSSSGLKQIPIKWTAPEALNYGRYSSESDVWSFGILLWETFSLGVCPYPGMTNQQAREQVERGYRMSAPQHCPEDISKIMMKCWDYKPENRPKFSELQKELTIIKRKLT
Chain of UniProt O15146 (whole entry, looked up): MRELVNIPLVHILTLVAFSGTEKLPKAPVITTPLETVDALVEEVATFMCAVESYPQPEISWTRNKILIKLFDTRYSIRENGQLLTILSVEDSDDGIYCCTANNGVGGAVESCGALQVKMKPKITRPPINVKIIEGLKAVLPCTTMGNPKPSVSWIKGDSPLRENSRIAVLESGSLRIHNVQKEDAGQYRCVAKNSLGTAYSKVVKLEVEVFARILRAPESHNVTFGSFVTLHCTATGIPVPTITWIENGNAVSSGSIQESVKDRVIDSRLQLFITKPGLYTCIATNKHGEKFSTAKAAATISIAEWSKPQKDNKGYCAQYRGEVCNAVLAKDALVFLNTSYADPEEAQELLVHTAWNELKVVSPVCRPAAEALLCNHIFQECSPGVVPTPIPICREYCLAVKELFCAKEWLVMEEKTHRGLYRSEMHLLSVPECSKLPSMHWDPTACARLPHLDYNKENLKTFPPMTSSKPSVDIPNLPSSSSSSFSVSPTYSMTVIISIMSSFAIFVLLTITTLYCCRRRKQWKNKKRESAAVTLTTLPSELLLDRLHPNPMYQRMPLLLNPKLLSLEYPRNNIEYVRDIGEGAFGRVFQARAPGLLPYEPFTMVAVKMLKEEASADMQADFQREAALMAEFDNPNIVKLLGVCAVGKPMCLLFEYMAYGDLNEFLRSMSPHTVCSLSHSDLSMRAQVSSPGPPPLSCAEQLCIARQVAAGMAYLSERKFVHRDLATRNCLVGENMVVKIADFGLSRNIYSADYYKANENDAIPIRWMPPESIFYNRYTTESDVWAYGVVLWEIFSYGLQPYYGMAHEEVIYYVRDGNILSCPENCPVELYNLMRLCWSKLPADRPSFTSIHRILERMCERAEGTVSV
Chain of UniProt P08069 (whole entry, looked up): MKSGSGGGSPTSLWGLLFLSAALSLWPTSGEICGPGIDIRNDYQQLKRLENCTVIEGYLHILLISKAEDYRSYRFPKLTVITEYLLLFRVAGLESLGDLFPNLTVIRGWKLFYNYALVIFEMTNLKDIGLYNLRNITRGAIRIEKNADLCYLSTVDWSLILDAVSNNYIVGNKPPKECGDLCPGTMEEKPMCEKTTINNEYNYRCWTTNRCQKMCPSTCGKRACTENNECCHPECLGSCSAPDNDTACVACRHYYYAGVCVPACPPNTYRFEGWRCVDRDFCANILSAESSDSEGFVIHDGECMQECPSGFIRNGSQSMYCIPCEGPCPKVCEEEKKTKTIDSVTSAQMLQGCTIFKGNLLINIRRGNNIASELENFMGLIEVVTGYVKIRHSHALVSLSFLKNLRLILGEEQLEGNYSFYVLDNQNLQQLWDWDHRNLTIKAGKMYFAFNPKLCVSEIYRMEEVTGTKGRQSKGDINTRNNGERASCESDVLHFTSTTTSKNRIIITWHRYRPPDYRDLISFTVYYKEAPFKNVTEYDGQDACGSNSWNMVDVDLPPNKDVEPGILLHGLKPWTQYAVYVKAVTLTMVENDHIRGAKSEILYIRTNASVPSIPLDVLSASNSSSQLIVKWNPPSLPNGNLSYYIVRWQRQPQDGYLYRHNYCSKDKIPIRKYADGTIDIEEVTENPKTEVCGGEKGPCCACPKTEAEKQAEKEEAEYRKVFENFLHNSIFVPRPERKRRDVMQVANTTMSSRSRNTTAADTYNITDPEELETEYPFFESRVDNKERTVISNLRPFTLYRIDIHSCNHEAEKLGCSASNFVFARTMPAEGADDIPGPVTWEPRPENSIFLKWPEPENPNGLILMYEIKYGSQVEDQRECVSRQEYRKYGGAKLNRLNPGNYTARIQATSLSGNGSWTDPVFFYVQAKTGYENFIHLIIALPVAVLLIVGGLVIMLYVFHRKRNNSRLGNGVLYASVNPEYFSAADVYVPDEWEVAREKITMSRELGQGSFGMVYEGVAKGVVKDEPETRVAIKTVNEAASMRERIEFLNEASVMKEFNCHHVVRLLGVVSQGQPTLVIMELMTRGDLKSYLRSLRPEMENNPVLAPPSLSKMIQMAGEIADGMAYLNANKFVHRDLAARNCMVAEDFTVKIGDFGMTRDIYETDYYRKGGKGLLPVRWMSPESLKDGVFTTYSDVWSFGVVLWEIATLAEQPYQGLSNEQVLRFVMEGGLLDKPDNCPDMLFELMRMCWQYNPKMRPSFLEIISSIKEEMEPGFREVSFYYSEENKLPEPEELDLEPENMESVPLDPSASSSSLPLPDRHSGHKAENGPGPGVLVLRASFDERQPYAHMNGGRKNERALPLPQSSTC
Chain of UniProt P48730 (whole entry, looked up): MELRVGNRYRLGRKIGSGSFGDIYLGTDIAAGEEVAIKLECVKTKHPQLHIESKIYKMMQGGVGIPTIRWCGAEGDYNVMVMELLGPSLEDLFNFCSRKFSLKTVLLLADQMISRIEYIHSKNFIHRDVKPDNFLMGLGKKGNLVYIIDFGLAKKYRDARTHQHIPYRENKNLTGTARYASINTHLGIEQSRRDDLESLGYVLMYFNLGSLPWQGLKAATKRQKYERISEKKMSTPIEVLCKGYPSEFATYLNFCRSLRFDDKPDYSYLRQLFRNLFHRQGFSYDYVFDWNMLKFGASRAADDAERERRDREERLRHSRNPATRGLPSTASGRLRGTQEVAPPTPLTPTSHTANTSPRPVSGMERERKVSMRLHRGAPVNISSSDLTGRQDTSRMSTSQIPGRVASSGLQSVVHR
Chain of UniProt Q14680 (whole entry, looked up): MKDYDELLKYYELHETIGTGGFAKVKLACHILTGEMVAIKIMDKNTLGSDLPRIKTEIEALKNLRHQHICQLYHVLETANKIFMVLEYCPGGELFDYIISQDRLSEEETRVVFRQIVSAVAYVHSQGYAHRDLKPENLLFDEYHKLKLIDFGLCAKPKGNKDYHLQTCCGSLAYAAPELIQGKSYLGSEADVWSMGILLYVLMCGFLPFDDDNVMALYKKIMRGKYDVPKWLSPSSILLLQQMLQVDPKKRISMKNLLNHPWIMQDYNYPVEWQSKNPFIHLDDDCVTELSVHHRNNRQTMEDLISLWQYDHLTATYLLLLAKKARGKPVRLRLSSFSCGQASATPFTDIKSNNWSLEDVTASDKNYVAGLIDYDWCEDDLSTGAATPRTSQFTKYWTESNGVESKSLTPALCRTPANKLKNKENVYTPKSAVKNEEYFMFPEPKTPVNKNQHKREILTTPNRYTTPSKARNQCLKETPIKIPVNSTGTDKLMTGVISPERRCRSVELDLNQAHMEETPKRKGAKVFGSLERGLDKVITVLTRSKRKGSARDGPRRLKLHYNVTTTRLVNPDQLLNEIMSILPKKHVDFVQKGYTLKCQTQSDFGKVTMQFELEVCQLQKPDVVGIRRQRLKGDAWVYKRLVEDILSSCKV

Series 1 — cell line: HaCaT; tested at: 100 µM; time: 18 h
Structure (SMILES)	viability [%]
CCc1nn(CCCN2CCN(c3cccc(Cl)c3)CC2)c(=O)n1CCOc1ccccc1	28.3
CC1(C)S[C@@H]2[C@H](NC(=O)[C@H](C(=O)O)c3ccsc3)C(=O)N2[C@H]1C(=O)O	98.8
CC(=O)O[C@H]1CC[C@@]2(C)C(=CC[C@@H]3[C@@H]2CC[C@]2(C)C(c4cccnc4)=CC[C@@H]32)C1	95.5
NC1C(O)O[C@H](CO)C(O[C@@H]2O[C@H](CO)C(O[C@@H]3O[C@H](CO)[C@@H](O)[C@H](O)[C@H]3N)[C@H](O)C2N)C1O (some centres unmarked)	116
Nc1cc(-c2ccncc2)c[nH]c1=O	113
Oc1ccc(OCc2ccccc2)cc1	72.7
CCOc1ccc2nc3cc(N)ccc3c(N)c2c1	42.6

Series 2 — read-out: cell-free assay; method: competition with immobilised ligand; tested at: 1 µM
SMILES: CNC(=O)Nc1ccc2c(c1)CC[C@@]21OC(=O)N(CC(=O)N(Cc2ccc(F)cc2)[C@@H](C)C(F)(F)F)C1=O
target	remaining binding [%]
SRSF protein kinase 1 (SRPK1, Homo sapiens, UniProt Q96SB4)	95
Mitogen-activated protein kinase kinase kinase 4 (MAP3K4, Homo sapiens, UniProt Q9Y6R4)	89
Serine/threonine-protein kinase 36 (STK36, Homo sapiens, UniProt Q9NRP7)	77
Serine/threonine-protein kinase haspin (HASPIN, Homo sapiens, UniProt Q8TF76)	100
Serine/threonine-protein kinase Nek5 (NEK5, Homo sapiens, UniProt Q6P3R8)	100
Epidermal growth factor receptor (EGFR, Homo sapiens, UniProt P00533, del747-750/T751S)	90
Activin receptor type-1B (ACVR1B, Homo sapiens, UniProt P36896)	86

Series 3 — Compound: COc1ccc(-c2cnc3c(-c4ccsc4)cnn3c2)cc1; read-out: enzyme activity; mode: inhibitor; tested at: 0.5 µM; relative to: control
target	remaining activity
Muscle, skeletal receptor tyrosine-protein kinase (MUSK, Homo sapiens, UniProt O15146)	74.9%
Serine/threonine-protein kinase pim-1 (PIM1, Homo sapiens, UniProt P11309)	97.5%
Casein kinase I isoform delta (CSNK1D, Homo sapiens, UniProt P48730)	83.6%
Tyrosine-protein kinase receptor TYRO3 (TYRO3, Homo sapiens, UniProt Q06418)	91.8%
Tyrosine-protein kinase Fes/Fps (FES, Homo sapiens, UniProt P07332)	98.2%
Mitogen-activated protein kinase kinase kinase 20 (MAP3K20, Homo sapiens, UniProt Q9NYL2)	84.1%
Activin receptor type-1-like (ACVRL1, Homo sapiens, UniProt P37023)	76.4%
Calcium/calmodulin-dependent protein kinase type 1 (CAMK1, Homo sapiens, UniProt Q14012)	104%
Protein kinase C zeta type (PRKCZ, Homo sapiens, UniProt Q05513)	107%
Serine/threonine-protein kinase Sgk2 (SGK2, Homo sapiens, UniProt Q9HBY8)	96.7%
Dual specificity protein kinase CLK2 (CLK2, Homo sapiens, UniProt P49760)	83.8%
Casein kinase I isoform epsilon (CSNK1E, Homo sapiens, UniProt P49674)	86.3%
Tyrosine-protein kinase JAK2 (JAK2, Homo sapiens, UniProt O60674)	98.4%
Ribosomal protein S6 kinase alpha-3 (RPS6KA3, Homo sapiens, UniProt P51812)	83.6%
Ephrin type-A receptor 6 (EPHA6, Homo sapiens, UniProt Q9UF33)	85.1%
Serine/threonine-protein kinase BRSK2 (BRSK2, Homo sapiens, UniProt Q8IWQ3)	94.1%
Cyclin-dependent kinase 5, with p35 (CDK5, Homo sapiens, UniProt Q00535)	64.5%
Serine/threonine-protein kinase PAK 5 (PAK5, Homo sapiens, UniProt Q9P286)	78.1%
Receptor tyrosine-protein kinase erbB-2 (ERBB2, Homo sapiens, UniProt P04626)	102%
Tyrosine-protein kinase JAK1 (JAK1, Homo sapiens, UniProt P23458)	87%
Serine/threonine-protein kinase PAK 4 (PAK4, Homo sapiens, UniProt O96013)	72.5%
Ephrin type-B receptor 3 (EPHB3, Homo sapiens, UniProt P54753)	99.4%
Maternal embryonic leucine zipper kinase (MELK, Homo sapiens, UniProt Q14680)	73.6%
Insulin-like growth factor 1 receptor (IGF1R, Homo sapiens, UniProt P08069)	91.3%
Tyrosine-protein kinase Yes (YES1, Homo sapiens, UniProt P07947)	67.7%

Series 4 — Structure (SMILES): CCN(c1nc(N)c(C(=O)N=C(N)N)nc1Cl)C(C)C; read-out: β-arrestin recruitment; mode: agonist; method: PRESTO-Tango; tested at: 10 µM; relative to: untreated
target	fold over basal
G-protein coupled receptor 35 (GPR35, Homo sapiens, UniProt Q9HC97)	1.1
B2 bradykinin receptor (BDKRB2, Homo sapiens, UniProt P30411)	1.29
Endothelin-1 receptor (EDNRA, Homo sapiens, UniProt P25101)	0.88
Trace amine-associated receptor 1 (TAAR1, Homo sapiens, UniProt Q96RJ0)	0.82 fold
Somatostatin receptor type 4 (SSTR4, Homo sapiens, UniProt P31391)	1.44 fold
P2Y purinoceptor 1 (P2RY1, Homo sapiens, UniProt P47900)	0.94
Prokineticin receptor 2 (PROKR2, Homo sapiens, UniProt Q8NFJ6)	0.8

Series 5 — read-out: binding; tested at: 1 µM
Compound: CN1CCN(C(=O)c2ccc(NC(=O)Nc3ccc(N(C)c4ccnc(Nc5ccc(CS(C)(=O)=O)cc5)n4)cc3)cc2)CC1
target	method	remaining binding [%]
Tyrosine-protein kinase Blk (BLK, Homo sapiens, UniProt P51451)	competition with immobilised ligand	87
Tyrosine-protein kinase Fer (FER, Homo sapiens, UniProt P16591)	–	46
Homeodomain-interacting protein kinase 1 (HIPK1, Homo sapiens, UniProt Q86Z02)	competition with immobilised ligand	72
Activin receptor type-2A (ACVR2A, Homo sapiens, UniProt P27037)	competition with immobilised ligand	78
Serine/threonine-protein kinase TBK1 (TBK1, Homo sapiens, UniProt Q9UHD2)	–	55
Misshapen-like kinase 1 (MINK1, Homo sapiens, UniProt Q8N4C8)	competition with immobilised ligand	18
Rhodopsin kinase GRK1 (GRK1, Homo sapiens, UniProt Q15835)	–	100
Epithelial discoidin domain-containing receptor 1 (DDR1, Homo sapiens, UniProt Q08345)	competition with immobilised ligand	0
Calcium/calmodulin-dependent protein kinase type 1B (PNCK, Homo sapiens, UniProt Q6P2M8)	–	85
Calcium/calmodulin-dependent protein kinase type 1D (CAMK1D, Homo sapiens, UniProt Q8IU85)	–	98

Some of these lines once more (series 4):
target	fold over basal
Somatostatin receptor type 4 (SSTR4, Homo sapiens, UniProt P31391)	1.44 fold
Endothelin-1 receptor (EDNRA, Homo sapiens, UniProt P25101)	0.88
P2Y purinoceptor 1 (P2RY1, Homo sapiens, UniProt P47900)	0.94
G-protein coupled receptor 35 (GPR35, Homo sapiens, UniProt Q9HC97)	1.1
Prokineticin receptor 2 (PROKR2, Homo sapiens, UniProt Q8NFJ6)	0.8
Trace amine-associated receptor 1 (TAAR1, Homo sapiens, UniProt Q96RJ0)	0.82 fold
B2 bradykinin receptor (BDKRB2, Homo sapiens, UniProt P30411)	1.29
